Assay results gathered from unrelated publications.
Compare with care: the assays were run in different laboratories.
Organism: Escherichia coli

CO[C@@H](C(N)=O)[C@H](NC(=O)c1ccc(NC(=O)[C@@H](N)Cc2ccc(O)cc2)cc1)C(=O)Nc1ccc(C(=O)Nc2ccc(C(=O)Nc3ccc(C(=O)O)c(O)c3OC(C)C)c(O)c2OC(C)C)cc1
MIC (empty cosmid vector; 16 h, 37 °C): 0.5 µg/mL

CC[C@H](C)[C@H](NC(=O)[C@@H](CCCNC(=N)N)NC(=O)[C@H](CCCNC(=N)N)NC(=O)[C@@H]1CCCN1C(=O)[C@@H]1CCCN1C(=O)[C@H](CCCNC(=N)N)NC(=O)[C@@H]1CCCN1C(=O)[C@H](CCCNC(=N)N)NC(=O)[C@@H]1CCCN1C(=O)[C@H](CC(C)C)NC(=O)[C@H](Cc1ccc(O)cc1)NC(=O)[C@H](Cc1ccc(O)cc1)NC(=O)[C@@H]1CCCN1C(=O)[C@H](CCCCN)NC(=O)[C@H](CC(=O)O)NC(=O)[C@@H](N)C(C)C)C(=O)N[C@@H](Cc1ccc(O)cc1)C(=O)N[C@@H](CC(N)=O)C(=O)N[C@H](CCCNC(=N)N)C(N)=O
MIC (broth microdilution; ATCC 25922; 18 h, 37 °C, 25% MHB2): 32 µg/mL

C#CCOc1ccc(CN[C@@]2(C)C[C@H](O[C@H]3[C@H](Oc4c5cc6cc4Oc4ccc(cc4Cl)[C@@H](O)[C@@H](NC(=O)[C@@H](CC(C)C)NC)C(=O)N[C@@H](CC(N)=O)C(=O)N[C@H]6C(=O)N[C@H]4C(=O)N[C@H](C(=O)N[C@H](C(=O)O)c6cc(O)cc(O)c6-c6cc4ccc6O)[C@H](O)c4ccc(c(Cl)c4)O5)O[C@H](CO)[C@@H](O)[C@@H]3O)O[C@@H](C)[C@H]2O)cc1OC
MIC (broth microdilution; ATCC 35218, cation-adjusted Mueller-Hinton broth; 18 to 20 h, 37 °C, 0.002% polysorbate 80): > 128 µg/mL

CCCCCCCCCCCCCC(=O)N[C@H](CCN)C(=O)N[C@@H]1C(=O)N[C@@H](CCN)C(=O)N[C@@H](CC(C)C)C(=O)N[C@@H](CCN)C(=O)N[C@H](Cc2ccccc2)C(=O)N[C@@H](CC(C)C)C(=O)N[C@@H](CCN)C(=O)N[C@H](CCN)C(=O)N[C@@H](C(C)C)C(=O)N[C@@H](CC(=O)O)C(=O)O[C@@H]1C
MIC (ATCC 25922; with: purified DNA 0.1 mg/mL): no effect

CC1(C)[C@H](NC(=O)/C(=N\OCc2c(Cl)cccc2Cl)c2nsc(N)n2)C(=O)N1OS(=O)(=O)O
MIC (agar dilution; CDC 1001728, NDM-1): 32 µg/mL

CN[C@@H]1[C@H](O)[C@H](NC)[C@H]2O[C@]3(O)[C@H](O[C@@H]2[C@H]1O)O[C@H](C)C[C@H]3NC(=O)CNC(C)(C)C
MIC (microbial growth, broth dilution; K12): > 200 µg/mL

CC(C)C[C@H](NC(=O)[C@@H](NC(=O)[C@H](CCCCN)NC(=O)[C@H](CCCCN)NC(=O)[C@H](CC(C)C)NC(=O)[C@H](Cc1c[nH]c2ccccc12)NC(=O)[C@H](CCCCN)NC(=O)[C@H](CC(C)C)NC(=O)[C@H](CC(C)C)NC(=O)[C@H](CCCCN)NC(=O)[C@H](CCCCN)NC(=O)[C@@H](N)C(C)C)C(C)C)C(N)=O
MIC (24 h, 37 °C, Mueller-Hinton broth, KCl 4.5 mM): 64 µM

CC[C@H](C)[C@H](NC(=O)[C@@H](CCCNC(=N)N)NC(=O)[C@H](CCCNC(=N)N)NC(=O)[C@H](CO)NC(=O)[C@H](Cc1c[nH]c2ccccc12)NC(=O)[C@H](CCCNC(=N)N)NC(=O)[C@@H]1CCCN1C(=O)[C@H](CCCNC(=N)N)NC(=O)[C@@H]1CCCN1C(=O)[C@H](CC(C)C)NC(=O)[C@H](Cc1ccc(O)cc1)NC(=O)[C@@H]1CCCN1C(=O)[C@@H]1CCCN1C(=O)[C@H](CCCCN)NC(=O)[C@H](CC(=O)O)NC(=O)[C@@H](N)C(C)C)C(=O)N[C@@H](Cc1ccc(O)cc1)C(=O)N[C@@H](CC(N)=O)C(=O)N[C@H](CCCNC(=N)N)C(N)=O
MIC (broth microdilution; ATCC 25922; 18 h, 37 °C, 25% MHB2): 4 µg/mL

Repeated from above:
CC1(C)[C@H](NC(=O)/C(=N\OCc2c(Cl)cccc2Cl)c2nsc(N)n2)C(=O)N1OS(=O)(=O)O
MIC (agar dilution; CDC 1001728, NDM-1): 32 µg/mL
